Assay results pooled from the literature.
Each numbered part is a random draw from the data of one study; scales do not carry over between parts.
Sequence of UniProt O75716 (whole entry, looked up): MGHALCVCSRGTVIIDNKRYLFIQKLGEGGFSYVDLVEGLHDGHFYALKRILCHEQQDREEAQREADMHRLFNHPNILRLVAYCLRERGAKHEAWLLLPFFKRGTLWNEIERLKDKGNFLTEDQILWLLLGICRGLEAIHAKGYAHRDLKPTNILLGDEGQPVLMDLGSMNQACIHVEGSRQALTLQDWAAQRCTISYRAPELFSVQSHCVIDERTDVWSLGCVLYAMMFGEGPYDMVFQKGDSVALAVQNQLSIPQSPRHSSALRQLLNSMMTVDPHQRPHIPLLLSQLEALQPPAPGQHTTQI
Sequence of UniProt Q9BYP7 (whole entry, looked up): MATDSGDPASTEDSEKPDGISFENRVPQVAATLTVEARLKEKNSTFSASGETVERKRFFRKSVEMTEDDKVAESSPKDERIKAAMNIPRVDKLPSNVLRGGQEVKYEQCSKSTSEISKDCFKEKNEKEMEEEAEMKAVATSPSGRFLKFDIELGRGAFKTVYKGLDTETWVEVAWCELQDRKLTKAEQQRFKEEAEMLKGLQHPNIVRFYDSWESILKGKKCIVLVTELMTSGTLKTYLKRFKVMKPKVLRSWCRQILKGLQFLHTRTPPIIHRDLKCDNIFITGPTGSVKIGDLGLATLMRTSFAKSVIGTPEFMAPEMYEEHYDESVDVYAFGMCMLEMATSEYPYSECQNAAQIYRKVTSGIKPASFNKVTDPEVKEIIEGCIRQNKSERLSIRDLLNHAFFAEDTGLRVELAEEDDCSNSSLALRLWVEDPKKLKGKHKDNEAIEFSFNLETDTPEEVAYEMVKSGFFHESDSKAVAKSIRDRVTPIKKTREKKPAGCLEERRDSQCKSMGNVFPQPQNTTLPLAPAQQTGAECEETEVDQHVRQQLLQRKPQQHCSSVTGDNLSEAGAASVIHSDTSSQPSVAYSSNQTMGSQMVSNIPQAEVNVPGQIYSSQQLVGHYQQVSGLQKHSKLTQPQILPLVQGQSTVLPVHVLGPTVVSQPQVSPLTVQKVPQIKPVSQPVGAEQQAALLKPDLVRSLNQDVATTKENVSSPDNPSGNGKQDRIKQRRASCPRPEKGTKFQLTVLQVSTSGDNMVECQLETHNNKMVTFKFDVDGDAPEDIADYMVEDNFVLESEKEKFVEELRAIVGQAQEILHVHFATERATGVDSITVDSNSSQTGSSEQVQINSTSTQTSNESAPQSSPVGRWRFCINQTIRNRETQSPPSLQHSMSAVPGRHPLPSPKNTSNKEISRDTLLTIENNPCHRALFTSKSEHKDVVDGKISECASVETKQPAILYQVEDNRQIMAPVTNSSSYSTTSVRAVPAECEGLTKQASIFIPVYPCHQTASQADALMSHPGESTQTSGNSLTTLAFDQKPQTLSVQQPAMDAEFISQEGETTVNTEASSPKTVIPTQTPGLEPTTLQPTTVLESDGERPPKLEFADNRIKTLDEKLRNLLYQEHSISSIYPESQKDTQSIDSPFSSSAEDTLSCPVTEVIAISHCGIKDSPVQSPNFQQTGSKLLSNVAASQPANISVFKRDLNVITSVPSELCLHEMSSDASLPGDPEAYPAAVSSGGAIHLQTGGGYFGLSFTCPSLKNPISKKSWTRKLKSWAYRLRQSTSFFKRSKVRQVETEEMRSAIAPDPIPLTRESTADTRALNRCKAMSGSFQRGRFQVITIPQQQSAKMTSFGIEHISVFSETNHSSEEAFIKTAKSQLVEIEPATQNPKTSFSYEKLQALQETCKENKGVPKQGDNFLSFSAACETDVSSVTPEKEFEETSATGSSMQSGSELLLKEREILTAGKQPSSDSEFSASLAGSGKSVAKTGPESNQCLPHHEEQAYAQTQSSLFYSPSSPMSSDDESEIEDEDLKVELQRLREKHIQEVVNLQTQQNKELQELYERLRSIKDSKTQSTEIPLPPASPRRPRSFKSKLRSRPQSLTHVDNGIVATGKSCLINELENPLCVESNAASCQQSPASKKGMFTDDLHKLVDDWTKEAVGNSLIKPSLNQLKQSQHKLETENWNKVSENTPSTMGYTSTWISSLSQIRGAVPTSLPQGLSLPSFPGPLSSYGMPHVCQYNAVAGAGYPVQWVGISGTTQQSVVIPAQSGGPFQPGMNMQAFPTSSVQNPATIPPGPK
Sequence of UniProt Q13554 (whole entry, looked up): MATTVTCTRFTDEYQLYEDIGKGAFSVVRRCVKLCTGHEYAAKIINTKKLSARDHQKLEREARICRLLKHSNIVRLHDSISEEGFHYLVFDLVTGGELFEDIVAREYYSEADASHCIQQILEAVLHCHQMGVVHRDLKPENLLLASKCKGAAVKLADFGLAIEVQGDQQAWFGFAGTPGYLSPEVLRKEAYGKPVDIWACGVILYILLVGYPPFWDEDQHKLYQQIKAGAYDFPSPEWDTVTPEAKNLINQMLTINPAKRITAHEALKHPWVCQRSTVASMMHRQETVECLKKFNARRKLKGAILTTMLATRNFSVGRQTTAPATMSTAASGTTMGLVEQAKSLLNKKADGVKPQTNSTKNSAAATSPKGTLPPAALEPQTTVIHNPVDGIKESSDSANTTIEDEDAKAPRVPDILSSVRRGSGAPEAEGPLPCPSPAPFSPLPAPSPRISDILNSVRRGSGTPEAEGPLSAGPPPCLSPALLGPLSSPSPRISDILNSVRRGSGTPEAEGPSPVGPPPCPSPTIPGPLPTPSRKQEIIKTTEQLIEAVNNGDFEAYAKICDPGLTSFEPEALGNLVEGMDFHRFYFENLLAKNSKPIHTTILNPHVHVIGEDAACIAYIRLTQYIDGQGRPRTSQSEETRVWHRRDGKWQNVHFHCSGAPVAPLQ
Sequence of UniProt P54760 (whole entry, looked up): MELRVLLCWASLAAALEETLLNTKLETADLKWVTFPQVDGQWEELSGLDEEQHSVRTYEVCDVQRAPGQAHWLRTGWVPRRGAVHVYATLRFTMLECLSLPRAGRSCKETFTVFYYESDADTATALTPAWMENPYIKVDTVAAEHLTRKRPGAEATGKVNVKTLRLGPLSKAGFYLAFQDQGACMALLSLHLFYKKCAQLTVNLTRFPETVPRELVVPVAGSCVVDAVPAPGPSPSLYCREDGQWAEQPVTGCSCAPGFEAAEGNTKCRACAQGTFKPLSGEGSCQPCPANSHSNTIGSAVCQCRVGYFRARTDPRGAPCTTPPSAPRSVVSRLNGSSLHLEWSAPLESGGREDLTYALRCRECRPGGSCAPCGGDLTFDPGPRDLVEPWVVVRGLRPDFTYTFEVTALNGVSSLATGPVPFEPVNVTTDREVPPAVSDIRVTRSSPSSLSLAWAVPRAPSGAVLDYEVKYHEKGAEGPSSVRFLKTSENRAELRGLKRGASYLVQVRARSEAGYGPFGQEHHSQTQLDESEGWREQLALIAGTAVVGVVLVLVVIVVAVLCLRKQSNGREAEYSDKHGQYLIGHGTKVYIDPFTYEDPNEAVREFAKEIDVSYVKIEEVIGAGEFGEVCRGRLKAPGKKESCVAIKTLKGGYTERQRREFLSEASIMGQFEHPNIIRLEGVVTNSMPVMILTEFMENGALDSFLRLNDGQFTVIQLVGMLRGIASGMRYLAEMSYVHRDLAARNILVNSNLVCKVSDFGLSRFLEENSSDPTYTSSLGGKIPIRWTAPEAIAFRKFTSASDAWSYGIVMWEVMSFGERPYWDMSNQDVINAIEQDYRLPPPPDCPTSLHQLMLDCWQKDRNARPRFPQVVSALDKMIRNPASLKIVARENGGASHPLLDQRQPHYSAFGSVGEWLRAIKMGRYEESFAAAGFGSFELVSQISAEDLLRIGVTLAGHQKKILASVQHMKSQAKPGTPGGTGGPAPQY
Sequence of UniProt Q96SB4 (whole entry, looked up): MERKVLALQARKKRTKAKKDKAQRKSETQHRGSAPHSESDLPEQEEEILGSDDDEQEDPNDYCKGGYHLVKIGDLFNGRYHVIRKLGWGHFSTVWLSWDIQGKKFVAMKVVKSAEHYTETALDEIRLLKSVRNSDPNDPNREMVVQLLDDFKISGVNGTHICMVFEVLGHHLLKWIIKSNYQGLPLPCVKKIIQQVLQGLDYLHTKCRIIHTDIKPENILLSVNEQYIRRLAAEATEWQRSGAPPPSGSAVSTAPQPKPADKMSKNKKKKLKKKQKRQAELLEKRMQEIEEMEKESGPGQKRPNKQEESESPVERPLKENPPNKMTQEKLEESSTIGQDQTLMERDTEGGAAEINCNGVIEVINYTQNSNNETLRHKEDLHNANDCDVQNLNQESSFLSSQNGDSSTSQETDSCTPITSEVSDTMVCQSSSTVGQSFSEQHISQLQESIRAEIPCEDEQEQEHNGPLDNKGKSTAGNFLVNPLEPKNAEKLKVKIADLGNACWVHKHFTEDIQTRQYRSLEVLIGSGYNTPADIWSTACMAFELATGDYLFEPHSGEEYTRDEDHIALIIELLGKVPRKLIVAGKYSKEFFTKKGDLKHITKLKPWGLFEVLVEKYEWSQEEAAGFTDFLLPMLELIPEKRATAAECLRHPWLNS

Set 1 — read-out: enzyme activity; action: inhibitor; tested at: 10 µM; endpoint: inhibition
Target: Calcium/calmodulin-dependent protein kinase type II subunit alpha (CAMK2A, Homo sapiens, UniProt Q9UQM7)
Sequence of UniProt Q9UQM7 (whole entry, looked up): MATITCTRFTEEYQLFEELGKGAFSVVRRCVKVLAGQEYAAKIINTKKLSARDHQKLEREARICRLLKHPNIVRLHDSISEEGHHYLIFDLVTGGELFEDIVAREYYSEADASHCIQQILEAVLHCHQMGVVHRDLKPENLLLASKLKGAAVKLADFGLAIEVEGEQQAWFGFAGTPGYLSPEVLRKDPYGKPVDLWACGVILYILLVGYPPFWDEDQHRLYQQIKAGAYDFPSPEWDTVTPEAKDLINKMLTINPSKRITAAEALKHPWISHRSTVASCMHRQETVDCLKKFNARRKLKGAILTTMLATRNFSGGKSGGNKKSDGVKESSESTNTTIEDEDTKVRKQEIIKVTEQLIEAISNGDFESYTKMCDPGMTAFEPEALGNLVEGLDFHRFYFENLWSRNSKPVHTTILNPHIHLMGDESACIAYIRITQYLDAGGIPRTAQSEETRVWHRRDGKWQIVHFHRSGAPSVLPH
COc1cc(O)c(CC=C(C)C)c2c1C(=O)C[C@@H](c1ccc(O)cc1)O2: 0.01%
N[C@@H]1CONC1=O: 0%
CC(=O)[C@H]1CC[C@H]2[C@@H]3C=CC4=CC(=O)CC[C@@]4(C)[C@@H]3CC[C@]12C: -3%
C[C@@H](c1nc(-c2ccc(C#N)cc2)cs1)[C@](O)(Cn1cncn1)c1cc(F)ccc1F: 9%
C[C@H](C(=O)O)c1ccc(-c2ccccc2)c(F)c1: -3%
COc1cc2cc(Oc3ccc4ccc(=O)oc4c3)c(=O)oc2cc1O: -35%
COc1c2c(cc3oc(C)cc(=O)c13)O[C@H](C(C)(C)O)C2: 3%
COc1cc(/C=C/c2ccc(OC)c(OC)c2)oc(=O)c1: -34%
O=C1c2c(O)cccc2[C@H]([C@@H]2O[C@H](CO)[C@@H](O)[C@H](O)[C@H]2O)c2cc(CO)cc(O)c21: -27%
COc1cc(-c2[o+]c3cc(O)cc(O)c3cc2O)cc(O)c1O: -7%
COc1cc(-c2coc3cc(O[C@@H]4O[C@H](CO)[C@@H](O)[C@H](O)[C@H]4O)c(OC)c(O)c3c2=O)ccc1O: 2%
O=C(C[S+]([O-])Cc1ccco1)NC/C=C\COc1cc(CN2CCCCC2)ccn1 (stereo not shown): -4%
COC(=O)C1=C(C)NC(C)=C(C(=O)OC(C)(C)CN(C)CCC(c2ccccc2)c2ccccc2)C1c1cccc([N+](=O)[O-])c1 (stereo not shown): -13%
Oc1ccc2[nH]ccc2c1: -23%
NC1CCN(c2nc3c(cc2F)c(=O)c(C(=O)O)cn3-c2ccc(F)cc2F)C1 (stereo not shown): -11%
CCCCCCCCCCCCCCCCO: 17%
CC(=O)c1cc2c(CO)cc(O)cc2oc1=O: 3%

Set 2 — cell line: A-375; tested at: 100 µM; time: 18 h; endpoint: viability
O=C(Nc1ccc(O)cc1)c1ccccc1O: 94.3%
Nc1nc(Cl)nc2c1ncn2[C@H]1C[C@H](O)[C@@H](CO)O1: 54.1%
O=C1c2cccc(O)c2C(=O)c2c(O)cc(CO)cc21: 79.3%
CCN(CC)C(=O)Nc1ccc(OCC(O)CNC(C)(C)C)c(C(C)=O)c1 (stereo not shown): 88.7%
COC(=O)C1=CO[C@@H](O[C@@H]2O[C@H](CO)[C@@H](O)[C@H](O)[C@H]2O)[C@@H]2C(CO)=CC[C@H]12: 98.6%
COc1ccc(CN=c2[nH]c(N3CCC[C@H]3CO)ncc2C(=O)NCc2ncccn2)cc1Cl: 64.4%
CC(C)(C#N)c1cc(Cn2cncn2)cc(C(C)(C)C#N)c1: 90.5%
O=C(O)c1cc(O)c2c(c1)[C@H]([C@H]1c3cc(C(=O)O)cc(O)c3C(=O)c3c(O[C@@H]4O[C@H](CO)[C@@H](O)[C@H](O)[C@H]4O)cccc31)c1cccc(O[C@@H]3O[C@H](CO)[C@@H](O)[C@H](O)[C@H]3O)c1C2=O: 83%
Cc1onc(-c2ccccc2Cl)c1C(=O)N[C@@H]1C(=O)N2[C@@H]1SC(C)(C)[C@@H]2C(=O)O: 92%
CCC(=O)OCC(=O)[C@@]1(OC(=O)CC)[C@@H](C)C[C@H]2[C@@H]3CCC4=CC(=O)C=C[C@]4(C)[C@@]3(Cl)[C@@H](O)C[C@@]21C: 82.5%
COc1c(C)c2c(c(O)c1C/C=C(\C)CCC(=O)O)C(=O)OC2: 78.6%
COC(=O)/C=C/C(=O)OC: 102%
NC(=O)NS(=O)(=O)c1ccc(N)cc1: 99.6%
COc1ccc([C@@H]2CC(=O)c3c(O)cc(O)cc3O2)cc1O: 99.6%
CN(C)CCn1nnnc1SCC1=C(C(=O)O)N2C(=O)[C@@H](NC(=O)Cc3csc(N)n3)[C@H]2SC1: 112%
C[C@@H]1C[C@H]2[C@@H]3CCC4=CC(=O)C=C[C@]4(C)[C@@]3(F)[C@@H](O)C[C@]2(C)[C@@]1(O)C(=O)CO: 87.6%
CN(c1nccc(=O)[nH]1)C1CCN(c2nc3ccccc3n2Cc2ccc(F)cc2)CC1: 33.4%

Set 3 — tested at: 1 µM; endpoint: remaining binding
Structure (SMILES): NS(=O)(=O)c1cc(NC(=O)C2(c3ccccc3Cl)CC2)ccc1Oc1cccc(Cl)c1
Epidermal growth factor receptor (EGFR, Homo sapiens, UniProt P00533, del747-750/T751S); cell-free assay, competition with immobilised ligand: 75%
Serine/threonine-protein kinase PLK1 (PLK1, Homo sapiens, UniProt P53350); cell-free assay, competition with immobilised ligand: 92%
AP2-associated protein kinase 1 (AAK1, Homo sapiens, UniProt Q2M2I8); binding: 100%
Serine/threonine-protein kinase Nek5 (NEK5, Homo sapiens, UniProt Q6P3R8); cell-free assay, competition with immobilised ligand: 89%
Mitogen-activated protein kinase kinase kinase kinase 2 (MAP4K2, Homo sapiens, UniProt Q12851); cell-free assay, competition with immobilised ligand: 100%
Phosphatidylinositol 4,5-bisphosphate 3-kinase catalytic subunit alpha isoform (PIK3CA, Homo sapiens, UniProt P42336, E542K); cell-free assay, competition with immobilised ligand: 80%
Proto-oncogene tyrosine-protein kinase Src (SRC, Homo sapiens, UniProt P12931); cell-free assay, competition with immobilised ligand: 88%
Wee1-like protein kinase (WEE1, Homo sapiens, UniProt P30291); cell-free assay, competition with immobilised ligand: 91%
Bone morphogenetic protein receptor type-1B (BMPR1B, Homo sapiens, UniProt O00238); cell-free assay, competition with immobilised ligand: 81%
RAC-beta serine/threonine-protein kinase (AKT2, Homo sapiens, UniProt P31751); cell-free assay, competition with immobilised ligand: 100%
Serine/threonine-protein kinase/endoribonuclease IRE1 (ERN1, Homo sapiens, UniProt O75460); cell-free assay, competition with immobilised ligand: 61%
Serine/threonine-protein kinase WNK3 (WNK3, Homo sapiens, UniProt Q9BYP7); cell-free assay, competition with immobilised ligand: 78%
Serine/threonine-protein kinase SIK2 (SIK2, Homo sapiens, UniProt Q9H0K1); cell-free assay, competition with immobilised ligand: 100%
Glycogen synthase kinase-3 beta (GSK3B, Homo sapiens, UniProt P49841); cell-free assay, competition with immobilised ligand: 100%
Epidermal growth factor receptor (EGFR, Homo sapiens, UniProt P00533, del746-750); cell-free assay, competition with immobilised ligand: 46%
Aurora kinase C (AURKC, Homo sapiens, UniProt Q9UQB9); cell-free assay, competition with immobilised ligand: 63%
Serine/threonine-protein kinase 16 (STK16, Homo sapiens, UniProt O75716); cell-free assay, competition with immobilised ligand: 100%
Inhibitor of nuclear factor kappa-B kinase subunit alpha (CHUK, Homo sapiens, UniProt O15111); cell-free assay, competition with immobilised ligand: 100%
SRSF protein kinase 1 (SRPK1, Homo sapiens, UniProt Q96SB4); cell-free assay, competition with immobilised ligand: 71%
Serine/threonine-protein kinase Nek3 (NEK3, Homo sapiens, UniProt P51956); cell-free assay, competition with immobilised ligand: 95%
Casein kinase II subunit alpha' (CSNK2A2, Homo sapiens, UniProt P19784); cell-free assay, competition with immobilised ligand: 100%
Receptor-type tyrosine-protein kinase FLT3 (FLT3, Homo sapiens, UniProt P36888, D835V/ITD); cell-free assay, competition with immobilised ligand: 100%
Cyclin-dependent kinase 17 (CDK17, Homo sapiens, UniProt Q00537); cell-free assay, competition with immobilised ligand: 88%
Receptor-type tyrosine-protein kinase FLT3 (FLT3, Homo sapiens, UniProt P36888, D835H); cell-free assay, competition with immobilised ligand: 47%
Serine/threonine-protein kinase D3 (PRKD3, Homo sapiens, UniProt O94806); cell-free assay, competition with immobilised ligand: 85%

Set 4 — SMILES: CC(C)n1cnc2c(Nc3cccc(Cl)c3)nc(NCCO)nc21; read-out: enzyme activity; action: inhibitor; tested at: 0.5 µM; reference: control; endpoint: remaining activity
Tyrosine-protein kinase ABL1 (ABL1, Homo sapiens, UniProt P00519): 73.3%
Tyrosine-protein kinase Srms (SRMS, Homo sapiens, UniProt Q9H3Y6): 85.1%
Tyrosine-protein kinase Blk (BLK, Homo sapiens, UniProt P51451): 91.2%
Serine/threonine-protein kinase WNK3 (WNK3, Homo sapiens, UniProt Q9BYP7): 77.7%
Homeodomain-interacting protein kinase 2 (HIPK2, Homo sapiens, UniProt Q9H2X6): 93.3%
Serine/threonine-protein kinase 17A (STK17A, Homo sapiens, UniProt Q9UEE5): 96.8%
Cyclin-dependent kinase 4, with cyclin D3 (CDK4, Homo sapiens, UniProt P11802): 93.3%
Dual specificity tyrosine-phosphorylation-regulated kinase 3 (DYRK3, Homo sapiens, UniProt O43781): 97.2%
3-phosphoinositide-dependent protein kinase 1 (PDPK1, Homo sapiens, UniProt O15530): 96.8%
MAP kinase-activated protein kinase 3 (MAPKAPK3, Homo sapiens, UniProt Q16644): 91%
Ephrin type-B receptor 1 (EPHB1, Homo sapiens, UniProt P54762): 76.9%
Ephrin type-A receptor 4 (EPHA4, Homo sapiens, UniProt P54764): 87.5%
Cyclin-dependent kinase 6, with cyclin D3 (CDK6, Homo sapiens, UniProt Q00534): 89.7%
Homeodomain-interacting protein kinase 4 (HIPK4, Homo sapiens, UniProt Q8NE63): 94.6%
Calcium/calmodulin-dependent protein kinase type II subunit beta (CAMK2B, Homo sapiens, UniProt Q13554): 95.9%
Ephrin type-B receptor 4 (EPHB4, Homo sapiens, UniProt P54760): 82%
Mitogen-activated protein kinase kinase kinase kinase 4 (MAP4K4, Homo sapiens, UniProt O95819): 75.5%
Ribosomal protein S6 kinase alpha-6 (RPS6KA6, Homo sapiens, UniProt Q9UK32): 74.8%
Ribosomal protein S6 kinase alpha-5 (RPS6KA5, Homo sapiens, UniProt O75582): 87%
Phosphorylase b kinase gamma catalytic chain, skeletal muscle/heart isoform (PHKG1, Homo sapiens, UniProt Q16816): 75.8%
Tyrosine-protein kinase receptor UFO (AXL, Homo sapiens, UniProt P30530): 91.3%
Testis-specific serine/threonine-protein kinase 2 (TSSK2, Homo sapiens, UniProt Q96PF2): 107%
Serine/threonine-protein kinase 16 (STK16, Homo sapiens, UniProt O75716): 89.8%

For quick reference, copied from above (set 3):
Epidermal growth factor receptor (EGFR, Homo sapiens, UniProt P00533, del747-750/T751S); cell-free assay, competition with immobilised ligand: 75%
Serine/threonine-protein kinase PLK1 (PLK1, Homo sapiens, UniProt P53350); cell-free assay, competition with immobilised ligand: 92%
AP2-associated protein kinase 1 (AAK1, Homo sapiens, UniProt Q2M2I8); binding: 100%
Serine/threonine-protein kinase Nek5 (NEK5, Homo sapiens, UniProt Q6P3R8); cell-free assay, competition with immobilised ligand: 89%
Mitogen-activated protein kinase kinase kinase kinase 2 (MAP4K2, Homo sapiens, UniProt Q12851); cell-free assay, competition with immobilised ligand: 100%
Phosphatidylinositol 4,5-bisphosphate 3-kinase catalytic subunit alpha isoform (PIK3CA, Homo sapiens, UniProt P42336, E542K); cell-free assay, competition with immobilised ligand: 80%
Proto-oncogene tyrosine-protein kinase Src (SRC, Homo sapiens, UniProt P12931); cell-free assay, competition with immobilised ligand: 88%
Wee1-like protein kinase (WEE1, Homo sapiens, UniProt P30291); cell-free assay, competition with immobilised ligand: 91%
Bone morphogenetic protein receptor type-1B (BMPR1B, Homo sapiens, UniProt O00238); cell-free assay, competition with immobilised ligand: 81%
RAC-beta serine/threonine-protein kinase (AKT2, Homo sapiens, UniProt P31751); cell-free assay, competition with immobilised ligand: 100%
Serine/threonine-protein kinase/endoribonuclease IRE1 (ERN1, Homo sapiens, UniProt O75460); cell-free assay, competition with immobilised ligand: 61%
